# Measured values pooled from the literature.
# Numbered parts are unrelated; each lists some results of a single study. Several values in a cell are separate wells, animals, samples, runs or records.
# Chain of UniProt P21397 (whole entry, looked up): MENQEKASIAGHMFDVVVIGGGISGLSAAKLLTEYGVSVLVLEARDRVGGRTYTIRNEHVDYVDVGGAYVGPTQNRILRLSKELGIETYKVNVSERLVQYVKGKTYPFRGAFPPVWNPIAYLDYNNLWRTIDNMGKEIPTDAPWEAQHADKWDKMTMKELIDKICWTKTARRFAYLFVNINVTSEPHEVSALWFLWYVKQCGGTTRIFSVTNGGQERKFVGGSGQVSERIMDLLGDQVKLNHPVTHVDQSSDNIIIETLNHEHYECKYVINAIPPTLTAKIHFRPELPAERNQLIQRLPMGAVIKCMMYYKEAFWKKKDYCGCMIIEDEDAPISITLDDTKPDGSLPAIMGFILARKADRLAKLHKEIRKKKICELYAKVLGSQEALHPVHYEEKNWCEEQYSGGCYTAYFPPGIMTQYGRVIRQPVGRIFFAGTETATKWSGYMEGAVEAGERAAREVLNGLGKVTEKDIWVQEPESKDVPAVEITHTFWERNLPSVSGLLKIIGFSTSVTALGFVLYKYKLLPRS
# Chain of UniProt Q16853 (whole entry, looked up): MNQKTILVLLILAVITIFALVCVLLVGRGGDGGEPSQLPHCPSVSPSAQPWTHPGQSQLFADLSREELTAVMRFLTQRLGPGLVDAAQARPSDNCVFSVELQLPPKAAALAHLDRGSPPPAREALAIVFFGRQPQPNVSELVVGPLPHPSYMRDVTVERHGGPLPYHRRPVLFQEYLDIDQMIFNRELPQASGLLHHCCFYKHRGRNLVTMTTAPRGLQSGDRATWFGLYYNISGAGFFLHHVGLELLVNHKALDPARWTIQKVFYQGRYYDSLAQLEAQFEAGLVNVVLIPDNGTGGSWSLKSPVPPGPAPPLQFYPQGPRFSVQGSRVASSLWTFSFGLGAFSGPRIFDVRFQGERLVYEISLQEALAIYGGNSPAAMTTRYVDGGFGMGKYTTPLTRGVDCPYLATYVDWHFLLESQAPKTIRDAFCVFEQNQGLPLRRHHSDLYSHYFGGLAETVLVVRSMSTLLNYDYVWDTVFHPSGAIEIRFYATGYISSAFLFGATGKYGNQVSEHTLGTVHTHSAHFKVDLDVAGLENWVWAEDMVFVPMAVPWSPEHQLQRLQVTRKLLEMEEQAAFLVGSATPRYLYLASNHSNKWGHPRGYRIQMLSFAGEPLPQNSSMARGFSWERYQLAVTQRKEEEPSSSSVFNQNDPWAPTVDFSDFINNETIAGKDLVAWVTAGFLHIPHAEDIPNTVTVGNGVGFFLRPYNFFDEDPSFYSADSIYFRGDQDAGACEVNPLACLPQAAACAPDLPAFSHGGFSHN

# Series 1
# SMILES: C[C@@H]1CN(c2ccc(-c3cc(C(=O)NCCOCCOCCOCCOCCOCCOCCNC(=O)/C=C/c4[nH]cc(C(=O)N[C@@H](CC(N)=O)c5ccc(F)c(Cl)c5)c4-c4ccc(Cl)cc4F)ccc3F)cc2NC(=O)c2ccc(F)cc2C(F)(F)F)C[C@H](C)N1C
# Observed: thermal unfolding
# Method: differential scanning fluorimetry
# Concentration: 5.5 µM
# Reading: higher = more unfolded
# WDR5: WD repeat-containing protein 5 (WDR5, Homo sapiens, UniProt P61964)
# DCAF1: DDB1- and CUL4-associated factor 1 (DCAF1, Homo sapiens, UniProt Q9Y4B6)
# Chain of UniProt Q9Y4B6 (whole entry, looked up): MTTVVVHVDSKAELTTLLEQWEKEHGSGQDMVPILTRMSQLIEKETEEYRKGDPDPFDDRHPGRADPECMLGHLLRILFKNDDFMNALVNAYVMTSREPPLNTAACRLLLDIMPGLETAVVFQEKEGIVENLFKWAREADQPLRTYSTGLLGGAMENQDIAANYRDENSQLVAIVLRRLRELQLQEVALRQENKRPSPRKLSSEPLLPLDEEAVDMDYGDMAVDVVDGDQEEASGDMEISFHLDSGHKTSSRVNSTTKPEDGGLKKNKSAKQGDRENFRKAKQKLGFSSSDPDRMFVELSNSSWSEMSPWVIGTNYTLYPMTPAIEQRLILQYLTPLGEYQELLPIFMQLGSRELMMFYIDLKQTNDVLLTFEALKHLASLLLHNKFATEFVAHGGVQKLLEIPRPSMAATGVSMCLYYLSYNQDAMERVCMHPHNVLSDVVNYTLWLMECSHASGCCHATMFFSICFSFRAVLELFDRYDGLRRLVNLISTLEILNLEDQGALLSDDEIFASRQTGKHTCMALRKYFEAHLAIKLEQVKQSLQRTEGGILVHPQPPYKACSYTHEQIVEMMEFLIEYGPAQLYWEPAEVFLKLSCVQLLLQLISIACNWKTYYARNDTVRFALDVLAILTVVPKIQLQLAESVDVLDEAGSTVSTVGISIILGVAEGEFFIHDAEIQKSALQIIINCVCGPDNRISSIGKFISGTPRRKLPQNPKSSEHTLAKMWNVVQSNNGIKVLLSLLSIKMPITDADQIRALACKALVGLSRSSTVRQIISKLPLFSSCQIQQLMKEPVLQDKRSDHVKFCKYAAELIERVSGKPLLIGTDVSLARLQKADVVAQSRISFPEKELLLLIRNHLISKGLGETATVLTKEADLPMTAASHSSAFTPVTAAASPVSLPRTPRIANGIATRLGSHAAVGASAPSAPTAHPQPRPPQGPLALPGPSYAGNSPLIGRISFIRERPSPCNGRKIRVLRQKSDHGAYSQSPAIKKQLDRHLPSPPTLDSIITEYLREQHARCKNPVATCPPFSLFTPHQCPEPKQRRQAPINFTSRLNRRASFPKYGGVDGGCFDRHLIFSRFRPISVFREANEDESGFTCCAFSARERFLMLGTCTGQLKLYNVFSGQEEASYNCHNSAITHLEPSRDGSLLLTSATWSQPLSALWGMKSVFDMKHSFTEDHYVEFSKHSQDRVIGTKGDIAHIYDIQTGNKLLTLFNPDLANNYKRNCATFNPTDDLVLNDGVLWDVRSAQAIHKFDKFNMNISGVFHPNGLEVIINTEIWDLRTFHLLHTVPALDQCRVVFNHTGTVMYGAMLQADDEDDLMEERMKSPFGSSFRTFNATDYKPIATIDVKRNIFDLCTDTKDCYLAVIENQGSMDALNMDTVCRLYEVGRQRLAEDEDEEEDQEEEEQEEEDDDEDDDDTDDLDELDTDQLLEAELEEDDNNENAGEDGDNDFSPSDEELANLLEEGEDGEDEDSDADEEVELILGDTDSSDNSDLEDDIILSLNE
target,conditions,SYPRO Orange fluorescence [a.u.]
WDR5,94.01 °C,49400
DCAF1,59.81 °C,46500
WDR5,42.6 °C,14500
DCAF1,52.61 °C,21500
DCAF1,86.61 °C,34500
WDR5,47.8 °C,15400
WDR5,94.81 °C,48400

# Series 2
# Target: Sodium-dependent neutral amino acid transporter B(0)AT1 (SLC6A19, Homo sapiens, UniProt Q695T7)
# Chain of UniProt Q695T7 (whole entry, looked up): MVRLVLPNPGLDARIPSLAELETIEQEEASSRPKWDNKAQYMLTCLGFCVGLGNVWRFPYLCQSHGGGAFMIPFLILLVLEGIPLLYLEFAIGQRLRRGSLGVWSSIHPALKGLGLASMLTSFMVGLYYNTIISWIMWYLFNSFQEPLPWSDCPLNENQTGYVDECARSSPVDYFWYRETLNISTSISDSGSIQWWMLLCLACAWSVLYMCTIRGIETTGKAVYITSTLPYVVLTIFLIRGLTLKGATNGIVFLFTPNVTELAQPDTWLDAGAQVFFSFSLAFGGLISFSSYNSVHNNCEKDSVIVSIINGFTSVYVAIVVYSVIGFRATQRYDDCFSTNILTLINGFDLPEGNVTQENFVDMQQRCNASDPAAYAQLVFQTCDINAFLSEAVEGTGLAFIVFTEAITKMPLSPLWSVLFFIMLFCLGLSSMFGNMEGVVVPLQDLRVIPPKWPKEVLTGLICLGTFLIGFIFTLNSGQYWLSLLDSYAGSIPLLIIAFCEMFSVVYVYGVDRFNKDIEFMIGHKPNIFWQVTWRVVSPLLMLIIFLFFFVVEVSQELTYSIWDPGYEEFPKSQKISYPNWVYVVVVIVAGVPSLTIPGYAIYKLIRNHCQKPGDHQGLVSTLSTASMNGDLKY
# Action: inhibitor
# Method: FLIPR membrane potential
# Cell line: CHO-BC cells
# Concentration: 0.001 µM
SMILES,normalised transport activity
Cc1cc(NCC(=O)NC(C)C)ccc1Br,1
CCNC(=O)COc1ccc(Br)c(C)c1,0.953
CCNC(=O)COc1ccc(I)c(C)c1,0.905

# Series 3
# Target: Cyclin-dependent kinase 12, with cyclin K (CDK12, Homo sapiens, UniProt Q9NYV4)
# Chain of UniProt Q9NYV4 (whole entry, looked up): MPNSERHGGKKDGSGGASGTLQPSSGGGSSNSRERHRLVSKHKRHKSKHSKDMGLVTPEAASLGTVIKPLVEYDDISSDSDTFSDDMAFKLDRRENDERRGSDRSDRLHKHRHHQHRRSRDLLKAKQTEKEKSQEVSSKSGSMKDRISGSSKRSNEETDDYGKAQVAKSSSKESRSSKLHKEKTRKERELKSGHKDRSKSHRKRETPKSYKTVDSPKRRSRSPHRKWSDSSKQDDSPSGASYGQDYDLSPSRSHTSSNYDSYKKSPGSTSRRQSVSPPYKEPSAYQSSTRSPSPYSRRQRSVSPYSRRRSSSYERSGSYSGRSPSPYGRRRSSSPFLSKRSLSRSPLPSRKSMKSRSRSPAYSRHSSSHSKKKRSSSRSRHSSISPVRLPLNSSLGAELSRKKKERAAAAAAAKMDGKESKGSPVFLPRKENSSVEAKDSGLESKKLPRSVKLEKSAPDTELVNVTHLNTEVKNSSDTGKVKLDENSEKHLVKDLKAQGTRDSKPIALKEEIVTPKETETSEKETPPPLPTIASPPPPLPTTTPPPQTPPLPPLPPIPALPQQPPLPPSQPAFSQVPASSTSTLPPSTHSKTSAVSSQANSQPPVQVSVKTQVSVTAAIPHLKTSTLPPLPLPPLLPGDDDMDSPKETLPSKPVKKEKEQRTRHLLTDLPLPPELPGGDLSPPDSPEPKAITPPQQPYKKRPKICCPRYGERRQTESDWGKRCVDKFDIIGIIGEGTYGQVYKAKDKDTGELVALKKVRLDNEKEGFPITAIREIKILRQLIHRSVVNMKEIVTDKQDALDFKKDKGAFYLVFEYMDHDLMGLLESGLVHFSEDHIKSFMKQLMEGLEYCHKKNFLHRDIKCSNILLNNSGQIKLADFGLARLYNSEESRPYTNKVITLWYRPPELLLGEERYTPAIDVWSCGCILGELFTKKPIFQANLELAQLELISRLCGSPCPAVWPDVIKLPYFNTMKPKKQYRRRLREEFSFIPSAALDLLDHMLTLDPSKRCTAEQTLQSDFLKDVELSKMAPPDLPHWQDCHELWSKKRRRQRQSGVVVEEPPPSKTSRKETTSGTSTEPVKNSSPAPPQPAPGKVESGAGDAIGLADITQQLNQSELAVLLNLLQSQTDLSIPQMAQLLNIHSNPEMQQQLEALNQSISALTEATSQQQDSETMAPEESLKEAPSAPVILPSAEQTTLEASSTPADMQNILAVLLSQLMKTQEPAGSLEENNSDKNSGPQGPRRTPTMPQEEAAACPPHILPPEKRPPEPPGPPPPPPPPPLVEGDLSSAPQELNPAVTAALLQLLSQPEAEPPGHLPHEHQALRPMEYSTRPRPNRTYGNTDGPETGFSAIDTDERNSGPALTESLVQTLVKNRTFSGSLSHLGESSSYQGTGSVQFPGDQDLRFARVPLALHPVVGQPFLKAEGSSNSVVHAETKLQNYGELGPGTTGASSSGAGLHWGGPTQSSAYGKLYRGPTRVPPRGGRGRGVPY
# Observed: kinase activity
# Action: inhibitor
# Method: ADP-Glo
# Concentration: 0.0247 µM
Structure (SMILES),inhibition
CCn1cnc2c(NCc3nc4cc(F)c(F)cc4[nH]3)nc(N3CCn4ncnc4C3)nc21,19.6%
CCn1cnc2c(NCc3nc4cc(Cl)c(Cl)cc4[nH]3)nc(N3CCN(C(=O)c4ccccc4)CC3)nc21,26.2%
CC(=O)N1CCN(c2nc(NCc3nc4cc(Cl)c(Cl)cc4[nH]3)c3ncn(-c4cnn(C)c4)c3n2)CC1,8.8%
CC(=O)N1CCN(c2nc(NCc3nc4cc(Cl)c(Cl)cc4[nH]3)c3ncn(C(C)C)c3n2)CC1,-3.3%
CCn1cnc2c(NCc3nc4cc(Cl)c(Cl)cc4[nH]3)nc(N3CCN(C(=O)[C@H](C)NC(C)=O)CC3)nc21,-14.7%
CCn1cnc2c(NCc3nc4cc(Cl)c(Cl)cc4[nH]3)nc(N3CCN(Cc4ccncc4)CC3)nc21,-8.1%
Cn1cc(-n2cnc3c(NCc4nc5cc(Cl)c(Cl)cc5[nH]4)nc(N4CCNCC4)nc32)cn1,-6.4%
CCCCOc1nc(NCc2nc3cc(Cl)c(Cl)cc3[nH]2)c2ncn(CC)c2n1,10.6%
CCn1cnc2c(NCc3nc4cc(Cl)c(Cl)cc4[nH]3)nc(N3CCC(NC(C)=O)CC3)nc21,14.6%

# Series 4
# Compound: Cc1ccc(O)c(C)c1-c1cnc2[nH]c(-c3cnc(N4CCC(CN5CCN(c6cc7c(cc6F)c(N6CCC(=O)NC6=O)nn7C)CC5)CC4)nc3)cc2c1C#N
# Target: Membrane-associated tyrosine- and threonine-specific cdc2-inhibitory kinase (PKMYT1, Homo sapiens, UniProt Q99640)
# Construct (Q99640 1-499): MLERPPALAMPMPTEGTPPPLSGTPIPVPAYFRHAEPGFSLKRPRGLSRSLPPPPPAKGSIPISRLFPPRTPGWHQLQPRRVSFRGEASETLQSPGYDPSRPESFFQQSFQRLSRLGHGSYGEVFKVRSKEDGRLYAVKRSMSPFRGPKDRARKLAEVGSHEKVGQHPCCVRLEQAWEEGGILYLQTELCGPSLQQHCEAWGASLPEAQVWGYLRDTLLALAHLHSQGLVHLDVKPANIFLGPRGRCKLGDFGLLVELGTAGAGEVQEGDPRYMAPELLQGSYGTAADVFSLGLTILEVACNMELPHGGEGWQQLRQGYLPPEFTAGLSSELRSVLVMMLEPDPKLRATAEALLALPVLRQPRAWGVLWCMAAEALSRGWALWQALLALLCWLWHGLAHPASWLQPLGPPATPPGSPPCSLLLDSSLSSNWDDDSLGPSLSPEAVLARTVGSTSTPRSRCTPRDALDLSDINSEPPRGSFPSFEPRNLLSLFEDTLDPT
test,conditions,inhibition [%]
"cell-free assay, inhibitor, TR-FRET",12.35 nM,79.7
,0.1111 µM,98.7
,0.00412 µM,41.1
"cell-free assay, inhibitor, TR-FRET",0.1111 µM,98.6
,0.03704 µM,94.8
"cell-free assay, inhibitor, TR-FRET",152 pM,-2.87
,0.01235 µM,81.5
"cell-free assay, inhibitor, TR-FRET",1 µM,101

# Series 5
# SMILES: O=C(Nc1ccccc1)Nc1cccc(Oc2ccc3nccn3n2)c1
# Observed: binding
# Concentration: 1 µM
target,test,remaining binding [%]
"Epidermal growth factor receptor (EGFR, Homo sapiens, UniProt P00533, del746-750)",,52
"Protein-tyrosine kinase 2-beta (PTK2B, Homo sapiens, UniProt Q14289)",,40
"Cyclin-dependent kinase 4 (CDK4, Homo sapiens, UniProt P11802)",,100
"Casein kinase II subunit alpha (CSNK2A1, Homo sapiens, UniProt P68400)",,100
"Calcium-dependent protein kinase 1 (CDPK1, Plasmodium falciparum, UniProt P62344)",,81
"Citron Rho-interacting kinase (CIT, Homo sapiens, UniProt O14578)",competition with immobilised ligand,0
"Hepatocyte growth factor receptor (MET, Homo sapiens, UniProt P08581, Y1235D)",,100
"Mitogen-activated protein kinase kinase kinase kinase 2 (MAP4K2, Homo sapiens, UniProt Q12851)",competition with immobilised ligand,100
"Leucine-rich repeat serine/threonine-protein kinase 2 (LRRK2, Homo sapiens, UniProt Q5S007)",,100
"Serine/threonine-protein kinase PAK 4 (PAK4, Homo sapiens, UniProt O96013)",,100
"Myosin light chain kinase, smooth muscle (MYLK, Homo sapiens, UniProt Q15746)",,100
"Serine/threonine-protein kinase 32A (STK32A, Homo sapiens, UniProt Q8WU08)",,100
"Cyclin-dependent kinase 3 (CDK3, Homo sapiens, UniProt Q00526)",competition with immobilised ligand,90
"Tyrosine-protein kinase receptor TYRO3 (TYRO3, Homo sapiens, UniProt Q06418)",,89
"Mitogen-activated protein kinase kinase kinase 10 (MAP3K10, Homo sapiens, UniProt Q02779)",,91
"Dual specificity testis-specific protein kinase 1 (TESK1, Homo sapiens, UniProt Q15569)",competition with immobilised ligand,100
"Serine/threonine-protein kinase 36 (STK36, Homo sapiens, UniProt Q9NRP7)",competition with immobilised ligand,100

# Series 6
# SMILES: COc1cc(-c2nc3ccc(C(=O)NCCCN4CCN(c5cccc(C)c5C)CC4)cc3n2C2CCC2)cc(OC)c1OC
# Observed: binding
# Method: competition with immobilised ligand
# Concentration: 1 µM
target,remaining binding [%]
"Wee1-like protein kinase (WEE1, Homo sapiens, UniProt P30291)",89
"Ephrin type-A receptor 6 (EPHA6, Homo sapiens, UniProt Q9UF33)",92
"Mitogen-activated protein kinase kinase kinase kinase 1 (MAP4K1, Homo sapiens, UniProt Q92918)",92
"Calcium/calmodulin-dependent protein kinase type 1 (CAMK1, Homo sapiens, UniProt Q14012)",100
"Tyrosine-protein kinase ABL1, phosphorylated (ABL1, Homo sapiens, UniProt P00519, F317L)",99
"Testis-specific serine/threonine-protein kinase 1 (TSSK1B, Homo sapiens, UniProt Q9BXA7)",95
"Mitogen-activated protein kinase 15 (MAPK15, Homo sapiens, UniProt Q8TD08)",99
"Calcium/calmodulin-dependent protein kinase type 1D (CAMK1D, Homo sapiens, UniProt Q8IU85)",95
"Dual specificity mitogen-activated protein kinase kinase 3 (MAP2K3, Homo sapiens, UniProt P46734)",88
"Phosphatidylinositol 4,5-bisphosphate 3-kinase catalytic subunit alpha isoform (PIK3CA, Homo sapiens, UniProt P42336, M1043I)",100
"Protein kinase C delta type (PRKCD, Homo sapiens, UniProt Q05655)",100
"Dual specificity mitogen-activated protein kinase kinase 5 (MAP2K5, Homo sapiens, UniProt Q13163)",93
"Mitogen-activated protein kinase 8 (MAPK8, Homo sapiens, UniProt P45983)",97
"Serine/threonine-protein kinase PLK2 (PLK2, Homo sapiens, UniProt Q9NYY3)",77
"Myosin-IIIa (MYO3A, Homo sapiens, UniProt Q8NEV4)",95

# Mixed results
# Observed: enzyme activity
# Action: inhibitor
# MPO: Myeloperoxidase (MPO, Homo sapiens, UniProt P05164)
SMILES,target,test,conditions,inhibition
CS(=O)(=O)c1ccc(OC/C(=C/F)CN)cc1.Cl,"Amine oxidase [flavin-containing] A (MAOA, Homo sapiens, UniProt P21397)",,13.7 nM,0.276% and 7.8% and 4.69% and 0.464% and -1.19%
Cc1cc2c([nH]1)c(=O)[nH]c(=S)n2Cc1cccc(OC/C(=C/F)CN)c1,"Amine oxidase [copper-containing] 3 (AOC3, Homo sapiens, UniProt Q16853)",fluorescence,0.3704 µM,96.9% and 96.8%
Cc1nc2c([nH]1)c(=O)[nH]c(=S)n2Cc1cccc(OC/C(=C/F)CN)c1,MPO,fluorescence,1.5 nM,-8.21%
C=C(CN)COc1cccc(Cn2c(=S)[nH]c(=O)c3[nH]cnc32)c1,MPO,fluorescence,0.1111 µM,87.9%
